Assay results from different studies.
Parts stem from different laboratories: compare values within a part only. Positions count from the first letter of the parent shown.

Set 1
Target: RING finger protein unkempt homolog, zinc fingers 1-6, GST-SBP tag (UNK, Homo sapiens, UniProt Q9C0B0, residues 30-357)
Method: RNA Bind-n-Seq
Form: RNA
Medium: in vitro
Tested at: not given
Notes: RNA with constant flanks, human and mouse sites, ends assumed
Relative to: input RNA pool
Direction: higher = stronger binding
All sequences stand within: GGGAGUUCUACAGUCCGACGAUC … CAACAGAGGAUUGAGCAUCA
Residues (chain): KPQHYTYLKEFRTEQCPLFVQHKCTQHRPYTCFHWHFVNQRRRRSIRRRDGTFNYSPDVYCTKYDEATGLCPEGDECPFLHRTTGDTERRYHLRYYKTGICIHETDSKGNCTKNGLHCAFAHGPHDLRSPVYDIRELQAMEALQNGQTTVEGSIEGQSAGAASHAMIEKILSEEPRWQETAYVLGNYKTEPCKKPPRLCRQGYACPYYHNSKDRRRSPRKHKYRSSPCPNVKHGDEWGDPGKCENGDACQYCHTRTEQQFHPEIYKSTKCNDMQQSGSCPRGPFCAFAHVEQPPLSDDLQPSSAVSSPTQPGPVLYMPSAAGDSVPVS
Oligonucleotide	bound/input enrichment [ratio]
CGUGGAAAUAUUGUCUAUAUUCACAUAAGAGAUAAGACAUGGGAUGUUCAUGAGUAUUUGAAUAGUCUUUUCGAAGAAUUAAAAUCUUGGAGAGAUGUAUACUGGCGAUUGUGGGGAACA	0.2
GGGUCCCGCAGCUGGGCAGGCGGGCGGCCUGAGGGCGCGGAGCCAUGAAGCUGUACAGCCUCAGCGUCCUCUACAAAGGCGAGGCCAAGGUGGUGCUGCUCAAAGCCGCAUACGAUGUGU	0.165
UUACAAAGGACAAUCUUGGGUGGAAUUGCUUUUGUUGCCAUAAAAGGAGCAUUUAAGGUUUACUUCAAACAGCAGCAAUAUUUACGUCAGGCACACCGCAAAAUCCUAAAUUAUCCAGAG	0.177
AGAGCAGGCCUCUCCCCUCCGUCCUCGUCGUCCUCGUCCUCCUCCUCCUCCUCCUCCUCCGUGGUGGUAGUGGUGGGACUUCCCCCGGCUGCUGCCCCUCCCGCCGCCGCUGCUGUCCCC	0.458
CCUCCGCCCUGGCCCGGCCGCCGGGCCACCCGGCCGCGACACAGACGCUAGCCACGAGCCGGAGCCGUGAGCUGGAGCCAAGCGCGCUGAGGGCUGGACAGUCAGGCCUGGUCCCCACCA	0.0535
GCCCAGGGCAAGAUGGAGGGCACAAAGGGGCUGGGGUGGGACGUGUACUAGGGAGGUGGGUGGGUGGGGUGAGCAGAAGGGCAUUGUGUGUUGUAUUAUGAUGUGUGUUAAUUUCCAUGG	6.06
CGUGGGAUCUCCUGGAAGGACGAGGCCCGGGUGGUGAAGUGGGCUCUGGAGAAGCUGGAGCUGACCAAGUACGCAGACAAGCCGGCUGGCACCUACAGCGGCGGCAACAAGCGGAAGCUC	0.181
GUUUGCUUUGUGAACAUAUGUGUAUUGUAUAUAUUCUGUAUAGUUAUACUGUACUGAAAUAUUAGCUUGUUUGAUAUGAGAAAAAGUAUGUAUUGAGUACCUUUUUGCUAGCCUGAUUGC	1.97
AAGGCACGCUUGACCUGUCCGUGCUGUAACAUGCGUAAAAAGGAUGCUGUUCUUACUAAGUGUUUUCAUGUCUUCUGCUUUGAGUGUGUGAAGACACGCUAUGACACCCGCCAGCGCAAA	0.0616
GACUGUGAAACUUAAAAUGAAGCAGGUAAAUCAAUAAGAUGCAAAACUGUCUUAAUUGAACCAUCAUAGAGACGGUCACUCCUGCCCACAGACUAGGUCUGCACUAAUUGCCACUUCGGC	0.148
AAGAUGCCAUUUCACCUUACCCUUCUAAGUGUGUGCUUCUGCAACCUUAAAGCACUAAAUACUGCUAAGAAAGGGCUUAUUGAUUAUUAUUUAAUGCCAUCAUUAUCAACUACUUCACGC	0.234

Set 2
Target: Histone acetyltransferase KAT6A, winged helix 1, GST fusion (KAT6A, Homo sapiens, UniProt Q92794, residues 1-85)
Method: protein binding microarray
Form: double-stranded DNA, one strand shown
Medium: in vitro
Tested at: not given
Notes: 8-mer, flanks averaged, mean of 2 arrays, mostly near background
Relative to: not given
Direction: higher = stronger binding
Construct (chain): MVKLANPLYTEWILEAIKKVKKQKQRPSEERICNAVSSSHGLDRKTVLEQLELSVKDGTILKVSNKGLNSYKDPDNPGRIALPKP
Oligonucleotide	E-score
ATGTTCGA	-0.152
ACAATAGC	-0.0362
AAGATCTT	-0.119
ATGTGGCG	0.34
GAAAGCCC	0.0672
GCGATTAC	0.111
CTTGCACC	-0.0357
AACAATGA	-0.095
ATCATCAA	-0.119
ATGCCCTA	-0.215
CAATACCA	-0.107
AGGATACT	-0.0857
CTTCGCCC	0.155
GACCGATC	0.114
ACCATGTG	-0.15
TCCCTAAA	-0.168
CTATGATA	-0.0621
AACACGAT	-0.116

Set 3
Target: ABI1, truncated, D143A, DHFR fusion (Arabidopsis thaliana)
Method: DHFR PCA, deep sequencing
Medium: yeast
Notes: methotrexate growth selection, single substitutions
Added: (+)-ABA 2500 µM
Relative to: wild-type fitted maximum
Direction: higher = stronger binding
Starting sequence: PYL1, truncated, DHFR fusion (Arabidopsis thaliana); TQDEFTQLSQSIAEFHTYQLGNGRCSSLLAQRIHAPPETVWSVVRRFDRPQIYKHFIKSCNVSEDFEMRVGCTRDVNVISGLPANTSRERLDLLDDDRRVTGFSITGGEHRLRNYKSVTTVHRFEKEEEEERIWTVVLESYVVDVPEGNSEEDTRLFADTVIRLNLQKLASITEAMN
Variant	relative binding score [%]
R111F	69.2
Q2S	96.9
V44R	70.6
L93Y	103
K58S	94.1
I105V	105
E147K	95.5
F15G	53.1
H34L	98.5
Q19E	97.4
N114E	90.6
F56L	94.2
E151A	98.6

Set 4
Target: Sal-like protein 4, full length isoform A (SALL4, Homo sapiens, UniProt Q9UJQ4, residues 1-1053)
Chain of UniProt Q9UJQ4 (whole entry, looked up): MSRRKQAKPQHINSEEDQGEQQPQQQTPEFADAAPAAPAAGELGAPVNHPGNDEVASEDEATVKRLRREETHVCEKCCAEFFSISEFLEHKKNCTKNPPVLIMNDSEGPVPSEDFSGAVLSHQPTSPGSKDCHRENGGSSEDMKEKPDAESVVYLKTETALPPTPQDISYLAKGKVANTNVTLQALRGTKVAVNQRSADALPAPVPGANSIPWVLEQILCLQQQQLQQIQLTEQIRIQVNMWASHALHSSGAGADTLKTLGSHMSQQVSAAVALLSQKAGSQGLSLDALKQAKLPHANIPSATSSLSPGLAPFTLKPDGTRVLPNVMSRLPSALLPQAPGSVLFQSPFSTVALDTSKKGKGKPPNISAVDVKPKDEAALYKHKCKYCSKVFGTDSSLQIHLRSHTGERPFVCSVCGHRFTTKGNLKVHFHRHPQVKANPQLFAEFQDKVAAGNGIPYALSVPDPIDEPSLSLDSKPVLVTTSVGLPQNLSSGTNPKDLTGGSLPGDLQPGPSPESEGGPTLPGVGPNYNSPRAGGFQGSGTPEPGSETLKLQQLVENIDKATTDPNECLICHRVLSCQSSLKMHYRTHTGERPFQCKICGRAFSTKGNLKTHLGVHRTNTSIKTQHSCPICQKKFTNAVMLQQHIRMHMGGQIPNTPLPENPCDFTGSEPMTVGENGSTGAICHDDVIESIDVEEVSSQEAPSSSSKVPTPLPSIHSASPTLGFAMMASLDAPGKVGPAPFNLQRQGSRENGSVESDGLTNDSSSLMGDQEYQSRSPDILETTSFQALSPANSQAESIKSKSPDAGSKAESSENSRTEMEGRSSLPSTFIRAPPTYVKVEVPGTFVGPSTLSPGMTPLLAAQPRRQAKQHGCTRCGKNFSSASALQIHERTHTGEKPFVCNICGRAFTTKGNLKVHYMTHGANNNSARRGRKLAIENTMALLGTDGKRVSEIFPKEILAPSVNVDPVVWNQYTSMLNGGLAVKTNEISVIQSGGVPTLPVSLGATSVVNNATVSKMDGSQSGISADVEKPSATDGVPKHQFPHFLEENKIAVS
Method: universal PBM
Form: double-stranded DNA, one strand shown
Medium: in vitro
Tested at: 600 nM
Notes: 8-mer, flanks averaged, mean of replicates
Direction: higher = stronger binding
Oligonucleotide	E-score
AGTGTGAC	0.0312
AGAAATGA	0.328
CACACGTA	-0.0813
CACCCTAC	-0.0948
CGGCATAC	-0.141
ACCCCTCC	-0.304
AGACGATC	-0.265
CATAAGCA	0.197
CGGAGGAA	-0.266
CGGCTACC	-0.271
CGATGCGC	-0.102
GCAGTCCA	-0.0268
GGGTATGA	0.0346
GACGAAGC	-0.0844
AAGCATGT	0.173
GAGTGAAC	-0.0791
CCTTCCGC	-0.281
AAATAGGT	0.233
ATTTTATC	0.361
CTAGAAAA	0.174
GCCTTGCA	-0.0478
ATGACCCG	-0.158

Set 5
Target: CCNB1, cyclin fold, Cln2 fusion (human)
Method: yeast growth competition, sequencing
Medium: yeast
Notes: weak parent motif
Relative to: not given
Direction: higher = stronger binding
Starting sequence: CDC6 docking peptide (human); TLKGRRLVFDNQL
Variant	normalised enrichment score
R6E	-0.811
R6S	0.123
G4A	0.408
L13C	0.18
N11P	0.676
F9R	0.446
F9S	1.03
F9W	1.01
K3E	0.108
N11V	0.536
D10T	-0.366
R5C	0.363
V8D	0.452
R5E	-0.306
T1S	0.292
L2N	-0.202

Set 6
Target: Fragile X messenger ribonucleoprotein 1, C-terminal low-complexity region (Fmr1, Mus musculus, UniProt P35922)
Method: RNA Bind-n-Seq
Form: RNA
Medium: in vitro
Tested at: 200 nM
Notes: whole 134-nt RNA, ends assumed
Added: 150 mM LiCl
Relative to: input library
Direction: higher = stronger binding
Each molecule: 7-deaza-guanosine replaces G
All sequences stand within: GGGAGUUCUACAGUCCGACGAUC … UGGAAUUCUCGGGUGUCAAGG
Oligonucleotide	log2 enrichment
AGUCCUGUGCUACACAUCGUAUGUACCGAAUCGGGUUUUUGGGUUUUUUUGGGAGGGAAAGUAUUAUGUUACGCCGUUCGGAUCUGCACU	-0.581
UGGCCCUGGUGGCAUGCGGGGAGGAAGAGGUGGCCUCAUGGAUCGUGGUGGUCCAGGUGGAAUGUUCAGAGGUGGCCGUGGUGGAGACAG	-0.625
AGUCCUGUGCUACACAUCGUAUGUACCGAAUCGGAAAAAGGAAAAAGGAAAAAAAGGAAAGUAUUAUGUUACGCCGUUCGGAUCUGCACU	-1.74
CUCAAGUCCUGUGCUACACAUCGUAUGUACCGAAUCGGGCCGGGGCCGGCCGGGAAAGUAUUAUGUUACGCCGUUCGGAUCUGCACUUCC	0.371
GUCCUGUGCUACACAUCGUAUGUACCGAAUCGGGGAAAAAAGGAAAAAAGGAAAAAAGGAAAGUAUUAUGUUACGCCGUUCGGAUCUGCA	0.0339

Set 7
Target: BATF2, bZIP domain (human)
Method: DHFR protein complementation
Medium: yeast
Notes: single substitutions, most at no-binding floor
Relative to: wild-type JUN-FOS pair
Direction: higher = stronger binding
Starting sequence: JUN, bZIP domain (human); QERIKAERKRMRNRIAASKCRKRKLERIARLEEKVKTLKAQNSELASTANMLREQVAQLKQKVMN; partner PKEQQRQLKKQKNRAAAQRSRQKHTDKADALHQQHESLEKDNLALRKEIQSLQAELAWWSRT
Variant	binding fitness [natural log]
Q41H	-0.595
T37Y	-0.224
E54F	-0.786
R30V	0.0154
A40R	-0.241
T48Y	-0.298
A57S	-0.425
K39I	-0.392
E33D	-0.42
A49V	-0.352
A40W	-0.722
Q55K	-0.12
L52F	-1.35

Set 8
Target: Interferon regulatory factor 5, full length, phosphomimetic (IRF5, Homo sapiens, UniProt Q13568-2, residues 1-514, S451D/S453D/S456D/S462D)
Method: protein-binding microarray
Form: double-stranded DNA, one strand shown
Medium: in vitro
Tested at: 940 nM top
Notes: 60-bp whole probe
Added: salmon DNA 0.4 mg/ml
Relative to: random background probes
Direction: higher = stronger binding
All sequences stand within: GCCTAGCAC … GTCTTGATTCGCTTGACGCTGCTG
Oligonucleotide	fitted relative affinity
GACGATATCGGCTATCGAGACGTGCTA	0.0518 z-score
TCAAATGTCCTCCTCTCACTGTGCTAG	0.899 z-score
TTAGGTCTCGGTTCCGGTTAGTGCTAG	5.68 z-score
GACGATTACGGGACTGGAGACGTGCTA	-0.378 z-score
TACTCTCTCCATGTGTTTAAGTGCTAG	2.16 z-score
GGTGGGGTGCAGCAGGGCCAGTGCTAG	-0.414 z-score
TTAGGTATCTTTCTCCTTTAGTGCTAG	1.02 z-score
GACGGACTGGATTTTCGGGACGTGCTA	-0.222 z-score
TTAGGTTTCGACTATCGGCTAGTGCTA	9.24 z-score
GACGATTTCAGACTGGATACGTGCTAG	-0.378 z-score
TTAGGTCTCGGTATCGGCTAGTGCTAG	5.79 z-score
GACGGTTTCGGTAACGGGACGTGCTAG	12.7 z-score
CAGTTTTCCTATGTCATTTAGTGCTAG	2.26 z-score
TCATATGTGTATATATAACTGTGCTAG	0.119 z-score
TTGGGTCTCGGACTGGGTTAGTGCTAG	0.989 z-score
TTAGGTATCCTTCTCCTTCAGTGCTAG	0.427 z-score
CAAATTGTCTCTGTCCCTGTGTGCTAG	1.45 z-score

For quick reference, copied from above (set 4):
Oligonucleotide	E-score
GAGTGAAC	-0.0791
CCTTCCGC	-0.281
AAATAGGT	0.233
ATTTTATC	0.361
CTAGAAAA	0.174
GCCTTGCA	-0.0478
